Published values of several laboratories.
Each line is one published result; not all experiments were run side by side. Values joined by “and” are separate records of one study, mostly repeats; a detail may differ. Numbers after ± are the reported error.
YWHAG/RELA phospho-Ser45 p65 peptide: YWHAG/RELA, phospho-Ser45 p65 peptide (Homo sapiens, UniProt P61981+Q04206)
Chain of UniProt Q04206 (whole entry, looked up): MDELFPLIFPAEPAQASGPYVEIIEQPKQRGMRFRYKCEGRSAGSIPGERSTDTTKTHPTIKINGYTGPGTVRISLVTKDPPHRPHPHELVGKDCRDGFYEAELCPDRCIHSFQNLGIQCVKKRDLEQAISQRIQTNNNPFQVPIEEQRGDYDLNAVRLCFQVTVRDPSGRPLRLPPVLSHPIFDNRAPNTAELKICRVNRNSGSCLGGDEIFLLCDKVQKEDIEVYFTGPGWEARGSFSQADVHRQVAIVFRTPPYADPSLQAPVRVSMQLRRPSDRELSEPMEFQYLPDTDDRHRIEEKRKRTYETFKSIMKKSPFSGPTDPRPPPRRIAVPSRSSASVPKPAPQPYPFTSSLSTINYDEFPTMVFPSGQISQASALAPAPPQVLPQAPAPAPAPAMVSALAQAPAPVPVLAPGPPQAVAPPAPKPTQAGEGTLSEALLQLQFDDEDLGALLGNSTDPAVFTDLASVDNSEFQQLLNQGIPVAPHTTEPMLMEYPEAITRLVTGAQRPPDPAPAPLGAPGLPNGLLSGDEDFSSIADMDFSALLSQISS
Chain of UniProt P61981 (whole entry, looked up): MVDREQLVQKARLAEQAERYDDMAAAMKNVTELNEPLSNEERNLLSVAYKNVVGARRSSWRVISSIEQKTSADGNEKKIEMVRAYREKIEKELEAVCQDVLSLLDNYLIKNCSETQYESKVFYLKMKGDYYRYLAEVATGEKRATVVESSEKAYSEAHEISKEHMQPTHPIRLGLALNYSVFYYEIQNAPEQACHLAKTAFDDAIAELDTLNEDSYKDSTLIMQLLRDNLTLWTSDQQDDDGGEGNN
Nuclear receptor subfamily 2 group C member 2 ligand-binding domain: Nuclear receptor subfamily 2 group C member 2, ligand-binding domain (Homo sapiens, UniProt P49116)
Chain of UniProt P49116 (whole entry, looked up): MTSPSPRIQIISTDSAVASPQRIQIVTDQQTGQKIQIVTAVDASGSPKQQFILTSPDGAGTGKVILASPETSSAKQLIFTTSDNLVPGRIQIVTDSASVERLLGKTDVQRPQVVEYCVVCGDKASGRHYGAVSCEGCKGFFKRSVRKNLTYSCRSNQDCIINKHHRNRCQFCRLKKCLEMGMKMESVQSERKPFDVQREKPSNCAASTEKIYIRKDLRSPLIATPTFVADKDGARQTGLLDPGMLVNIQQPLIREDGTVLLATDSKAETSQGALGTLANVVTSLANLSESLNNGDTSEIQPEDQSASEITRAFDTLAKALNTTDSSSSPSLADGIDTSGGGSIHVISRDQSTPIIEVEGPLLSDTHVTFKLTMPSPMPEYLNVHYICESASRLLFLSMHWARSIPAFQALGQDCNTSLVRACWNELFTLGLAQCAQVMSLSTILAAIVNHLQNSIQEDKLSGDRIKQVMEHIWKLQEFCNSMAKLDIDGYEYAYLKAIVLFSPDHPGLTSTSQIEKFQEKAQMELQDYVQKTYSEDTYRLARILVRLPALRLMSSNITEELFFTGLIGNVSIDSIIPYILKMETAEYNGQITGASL

| SMILES | tested on | assay | test system | conditions | how to read | measurement | value |
| --- | --- | --- | --- | --- | --- | --- | --- |
| C=CCNC1=C2C[C@@H](C)C[C@H](OC)[C@H](O)[C@@H](C)/C=C(\C)[C@H](OC(N)=O)[C@@H](OC)/C=C\C=C(/C)C(=O)NC(=CC1=O)C2=O | iPSC-derived cardiomyocytes | concentration-response fit |  | concentration not given | reference: vehicle | fitted bottom MyBP-C level | 16.5% |
| O=C(/C=C/C=C/C=C/C1CCCCC1)NC1=C[C@@](O)(/C=C/C=C/C=C/C(=O)NC2=C(O)CCC2=O)[C@@H]2O[C@@H]2C1=O | NCI-H292 | cell growth, CellTiter-Glo |  | 78 h |  | GI50 | 14.8 µM |
| C=Cc1c2[n-]c(c1C)/C=c1\[n-]/c(c(C)c1C=C)=C\c1[n-]c(c(CCC(=O)O)c1C)/C=c1\[n-]c(c(C)c1CCC(=O)O)=C2.[Sn+4] | SH-SY5Y | RNA-seq, refers to: LIF mRNA |  | 5 µM, 5 h | reference: untreated cells | fold change | 6.91 |
| C#CCCC1(CCC(=O)N2[C@@H](c3ccc4c(c3)OCO4)c3[nH]c4ccccc4c3C[C@H]2C(=O)N2CCOCC2)N=N1 | HeLa stably expressing GFP-LC3 |  |  | concentration not given, 4 h |  | LC3 puncta formation | inactive |
| O=c1oc2c(O)c(O)cc3c(=O)oc4c(O)c(O)cc1c4c23 | OCI-Ly1 |  |  | 0.1 µM, 120 h |  | viability | 94.5% |
| [Cl-].[Cl-].[Ru+2].c1cnc2c(c1)ccc1cccnc12.c1cnc2c(c1)ccc1cccnc12.c1csc(-c2ccc(-c3ccc(-c4ccc(-c5nc6c7cccnc7c7ncccc7c6[nH]5)s4)s3)s2)c1 | SK-MEL-28 |  |  | normoxia, together with: green light 523 nm |  | phototherapeutic index | 1600 |
| Cc1c(C(=O)O)ccc2c3n(nc12)[C@@H]1[C@H](C3)N(CC2CC2)[C@@]2(C(=O)Nc3cc(Cl)ccc32)[C@H]1c1cccc(Cl)c1F | Rh18 | cell growth, alamarBlue |  | unbound, 4.5% of total |  | IC50 | 0.00045 µM |
| Nc1ncnc2c1ncn2[C@@H]1O[C@H](CO)[C@@H](O)[C@H]1O | activated human T cells |  |  | 4 h, unit not given | reference: vehicle | maximal OCR | 51.5 and 54.6 and 66.1 and 42.4 and 49 and 40.6 |
| C[C@H]1[C@H](C)CC[C@]2(C)CC[C@]3(C)C(=CC(=O)[C@@H]4[C@@]5(C)CC[C@@H](O)[C@](C)(C(=O)NCc6cn(-c7cccc(Br)c7)nn6)[C@@H]5CC[C@]43C)[C@H]12 | human PBMCs | flow cytometry |  | 10 µM | reference: CD8+ T cells | TIGIT positive cells | 8.36% |
| Cc1nc(C(F)(F)F)ccc1C(=O)Oc1cc(C=O)ccc1[N+](=O)[O-] | YWHAG/RELA phospho-Ser45 p65 peptide | ternary complex formation, stabilizer, fluorescence anisotropy |  |  |  | EC50 | > 1000 µM |
| CCCCc1nc(Cl)c(CO)n1Cc1ccc(-c2ccccc2-c2nn[nH]n2)cc1 | human PBMC | RNA-seq, refers to: AK4 mRNA |  | 10 µg/mL, 24 h | reference: untreated control | log2 fold change | 1.8 |
| CCCCN1C[C@H](O)[C@@H](O)[C@@H](O)[C@H]1CO | sample BA patient fibroblasts | Gb3 level lowering, LC-MS/MS, refers to: Gb3 d18:1/18:0 |  | 216 h |  | IC50 | 24 µM |
| O=C(C[C@@H](C(F)F)n1ccc(F)n1)N1CCC(O)(Cn2cnc3c(cnn3-c3ccc(F)cc3)c2=O)CC1 | CHP-212 parental | PI flow cytometry |  | 0.1 µM, 24 h |  | S phase cells | 19.4% |
| CC(=O)c1nn(-c2ccc(Cl)cc2)/c(=N/N=C(\C)c2ccc(NC(=O)c3ccc(C)cc3)cc2)s1 | HepG2 |  |  | 1.25 µM |  | toxicity | 82% |
| O=C(O)c1ccc(C(=O)O)cc1 | human cells | reporter gene, agonist, luciferase reporter |  |  | reference: positive control | fitted curve top | 0% |
| O=Cc1ccc([N+](=O)[O-])c(N2CCCC(O)C2)c1 (centres unmarked) | YWHAG/RELA phospho-Ser45 p65 peptide | ternary complex formation, stabilizer, fluorescence anisotropy |  |  |  | EC50 | > 1000 µM |
| COc1cc(/C=C/C(=O)N2CCC=CC2=O)cc(OC)c1OC | MDA-MB-468 | quantitative RT-PCR, refers to: Nestin |  | 30 µM, 8 h | reference: untreated | mRNA level | 97.1 ± 6.2% |
| CC(C)NCCCn1c(Sc2cc3c(cc2I)OCO3)nc2c(N)ncnc21 | iPSC-derived cardiomyocytes | concentration-response fit |  |  | reference: vehicle | fitted bottom MyBP-C/MYH ratio | 35.2% |
| CN(C)c1ccc2nc3ccc(=[N+](C)C)cc-3sc2c1 | mouse CA1 pyramidal neurons | patch clamp | hippocampal slices | 10 µM |  | mean mIPSC amplitude | 33 ± 2.5 pA |
| C=C(C)[C@@H](CC=C(C)C)C[C@@]12C[C@@H](CC=C(C)C)C(C)(C)[C@@](CC=C(C)C)(C(=O)C(C(=O)c3ccc(O)c(O)c3)=C1O)C2=O | OCI-Ly1 |  |  | 0.5 µM, 120 h |  | viability | 2.09% |
| CC(C)(O)c1coc(S(=O)(=O)NC(=O)Nc2c3c(cc4c2CCC4)CCC3)c1 | THP-1 GSDMD knockout, LPS-primed | inhibitor |  | 25 µM, 2 h, together with: nigericin 6.25 µM |  | LDH release | 19.9% and 25.2% and 19% |
| Cn1cc(-c2ccc(-c3cncc(Cl)c3N3CCC4(CCNC4=O)CC3)cc2)cn1 | COLO 205 | gene expression, microarray, refers to: LY9 mRNA |  | concentration not given, 2 h | reference: untreated cells | log2 fold change | -2.02 |
| CCc1cnc(N2CCC(c3nc(COc4ccc(-n5cnnn5)cc4)cs3)CC2)nc1 | HEK293T | RNA-seq, refers to: HSPB1 mRNA |  | 10 µM, 6 h | reference: vehicle | log2 fold change | -0.208 |
| COc1cc(OC)c2c(=O)[nH]c(-c3cc(C)c(OCCO)c(C)c3)nc2c1 | OCI-Ly1 |  |  | 1 µM, 120 h |  | viability | 119% |

| SMILES | tested on | assay | test system | conditions | how to read | measurement | value |
| --- | --- | --- | --- | --- | --- | --- | --- |
| Cc1cccc(-c2[nH]c(CNc3ccccc3F)nc2-c2ccc3ncnn3c2)n1 | MM1.S | XTT |  | 3 µM |  | viability | 13% and 17% and 12% |
| Nc1ccc(C(=O)O)c(O)c1 | Nuclear receptor subfamily 2 group C member 2 ligand-binding domain | SPR imaging |  |  |  | Kd | 1.55 nM |
| CC(C)(C)OC(=O)CN(Cc1ccc(Cl)cc1)Cc1ccc([N+](=O)[O-])s1 | OCI-Ly1 |  |  | 0.5 µM, 120 h |  | viability | 130% |
| CCn1cc(-c2cc(Cn3ccoc3=N)cc3c2CCN([C@@H](C)c2cc(OC)ccn2)C3=O)c(C(F)(F)F)n1 | G-361 | cell growth, inhibitor |  | 120 h |  | EC50 | 0.00521 µM |
| C#CCCC(=O)SCCNC(=O)CCNC(=O)[C@H](O)C(C)(C)COP(=O)(O)OP(=O)(O)OC[C@H]1O[C@@H](n2cnc3c(N)ncnc32)[C@H](O)[C@@H]1OP(=O)(O)O | OCI-Ly1 |  |  | 0.1 µM, 120 h |  | viability | 111% |
| C=C1C(=O)O[C@H]2[C@H]1CCC(C)=C1CC[C@@](C)(O)[C@@H]12 | iPSC-derived cardiomyocytes | concentration-response curve, refers to: MyBP-C protein level |  |  |  | EC50 | > 50 µM |
| Cn1c(Nc2nc3ccc(C(F)(F)F)cc3s2)nc2cc(C(=O)NCCOCCO)ccc21 | SH-SY5Y | RNA-seq, refers to: CXCL12 mRNA |  | 5 µM, 5 h | reference: untreated cells | fold change | 2.13 |
| FC(F)(F)Oc1ccc(CNc2ccc3c[nH]nc3c2)cc1 | sample A patient iPSC-derived NPCs | MTS |  | 10 µM, 24 h | reference: vehicle | viability | 116 ± 7.68% |
| Cn1cc(/C=C/C(=O)c2cccc(F)c2)cc1/C=C/C(=O)NO | OCI-Ly1 |  |  | 0.1 µM, 120 h |  | viability | 197% |
| C=CC(=O)N1[C@@H](c2ccc3c(c2)OCO3)c2[nH]c3ccccc3c2C[C@H]1C(=O)NC | rat DRG neurons |  |  | 0.004572 µM, 48 h, together with: vincristine 40 nM |  | neuron degeneration | 91.1% and 89% |
| CC/C(=N\NC(=O)C(C)Nc1ccccc1)c1ccc(O)c(C)c1O (centres unmarked) | SK-OV-3 | Western blot, refers to: YAP |  | 10 µM, 1 h, 3D gellan gum culture, unit not given | reference: β-actin | protein level | 1.01 ± 0.19 |
| [Cl-].[Cl-].[Ru+2].c1cnc2c(c1)ccc1cccnc12.c1cnc2c(c1)ccc1cccnc12.c1csc(-c2ccc(-c3ccc(-c4nc5c6cccnc6c6ncccc6c5[nH]4)s3)s2)c1 | SK-MEL-28 | cytotoxicity, resazurin |  | dark, normoxia |  | EC50 | < 100 µM |
| FC(F)(F)c1ccc(CN(Cc2ccc(C(F)(F)F)cc2)c2ccc3scnc3c2)cc1 | sample A patient iPSC-derived NPCs | MTS |  | 10 µM, 24 h | reference: vehicle | viability | 106 ± 2.28% |
| COc1ccc(NC(=S)N/N=C/c2cccc3cc4ccccc4nc23)cc1 | HeLa | annexin V/PI flow cytometry |  | IC50, 48 h, together with: N-acetylcysteine |  | necrotic cells | 6.31 ± 0.77% |
| CCn1cc(-c2cc(Cn3ccnc3)cc3c2CCN([C@H](c2cc(OC)ccn2)C2CC2)C3=O)c(C(F)(F)F)n1 | JHH7 | cell growth, inhibitor |  | 120 h |  | EC50 | 25.2 µM |
| Cc1cc(Nc2ncc(Cl)c(Nc3ccccc3S(=O)(=O)C(C)C)n2)c(OC(C)C)cc1C1CCNCC1 | CLB-BAR | phosphoproteomics LC-MS/MS, refers to: CCT2 phosphorylation |  | 200 nM, 60 min | reference: untreated | log2 fold change | -3.12 |
| Nc1ncn([C@H]2C[C@H](O)[C@@H](CO)O2)c(=O)n1 | OCI-Ly1 |  |  | 1 µM, 120 h |  | viability | 18.2% |
| COc1cnc2cccc(N3CCc4c(cc(Cn5ccnc5C)cc4-c4cn(C)nc4C(F)(F)F)C3=O)c2c1 | HCC1954 | cell growth, inhibitor |  | 120 h |  | EC50 | 7.3 µM |
| CCn1c(=O)/c(=C2\Sc3cc(Cl)ccc3N2C)s/c1=C\c1scc[n+]1Cc1ccccc1.[Cl-] | iPSC-derived cardiomyocytes | concentration-response fit |  |  | reference: vehicle | fitted bottom MyBP-C/MYH ratio | 0% |
| COc1cnc(NS(=O)(=O)c2ccc(N)cc2)nc1 | Nuclear receptor subfamily 2 group C member 2 ligand-binding domain | SPR imaging |  |  |  | Kd | 0.0111 nM |
| COc1cc2ncnc(Nc3ccc(Oc4ccccc4)cc3C)c2cc1OC.O=C(O)C(F)(F)F | COLO 205 (BRAF V600E) | resazurin |  | 0.1 µM, 72 h, together with: trametinib 0 nM |  | fractional effect | 5% |
| C#Cc1cccc(Nc2ncnc3cc(OC)c(OCCCCCCC(=O)NO)cc23)c1 | OCI-Ly1 |  |  | 0.5 µM, 120 h |  | viability | 9.09% |
| CC(C)C[C@H](NC(=O)C[C@H](O)[C@H](CC(C)C)NC(=O)[C@H](Cc1c[nH]cn1)NC(=O)CNC(=O)[C@@H](NC(=O)[C@H](C)NC(=O)[C@H](Cc1c[nH]c2ccccc12)NC(=O)[C@H](CCC(N)=O)NC(=O)[C@@H](Cc1ccccc1)NC(=O)COCCOCCNC(=O)CCC(C(=O)O)N1CCN(CC(=O)O)CCN(CC(=O)O)CCN(CC(=O)O)CC1)C(C)C)C(N)=O (some centres unmarked) [lutetium-177 labelled] |  |  | female BALB/c nu/nu mice, tumor | intravenous, 50 pmol, 24 h |  | tissue uptake | 4 ± 1 %ID/g |

Excerpt of the above:
| SMILES | tested on | assay | test system | conditions | how to read | measurement | value |
| --- | --- | --- | --- | --- | --- | --- | --- |
| Cc1nc(C(F)(F)F)ccc1C(=O)Oc1cc(C=O)ccc1[N+](=O)[O-] | YWHAG/RELA phospho-Ser45 p65 peptide | ternary complex formation, stabilizer, fluorescence anisotropy |  |  |  | EC50 | > 1000 µM |
| CCCCc1nc(Cl)c(CO)n1Cc1ccc(-c2ccccc2-c2nn[nH]n2)cc1 | human PBMC | RNA-seq, refers to: AK4 mRNA |  | 10 µg/mL, 24 h | reference: untreated control | log2 fold change | 1.8 |
| CCCCN1C[C@H](O)[C@@H](O)[C@@H](O)[C@H]1CO | sample BA patient fibroblasts | Gb3 level lowering, LC-MS/MS, refers to: Gb3 d18:1/18:0 |  | 216 h |  | IC50 | 24 µM |
| O=C(C[C@@H](C(F)F)n1ccc(F)n1)N1CCC(O)(Cn2cnc3c(cnn3-c3ccc(F)cc3)c2=O)CC1 | CHP-212 parental | PI flow cytometry |  | 0.1 µM, 24 h |  | S phase cells | 19.4% |
| CC(=O)c1nn(-c2ccc(Cl)cc2)/c(=N/N=C(\C)c2ccc(NC(=O)c3ccc(C)cc3)cc2)s1 | HepG2 |  |  | 1.25 µM |  | toxicity | 82% |
| O=C(O)c1ccc(C(=O)O)cc1 | human cells | reporter gene, agonist, luciferase reporter |  |  | reference: positive control | fitted curve top | 0% |
| O=Cc1ccc([N+](=O)[O-])c(N2CCCC(O)C2)c1 (centres unmarked) | YWHAG/RELA phospho-Ser45 p65 peptide | ternary complex formation, stabilizer, fluorescence anisotropy |  |  |  | EC50 | > 1000 µM |
